Measurements collected from several papers.
Each numbered part is a random draw from the data of one study; scales do not carry over between parts. Substitutions count along the parent as printed.
Chain of UniProt P27037 (whole entry, looked up): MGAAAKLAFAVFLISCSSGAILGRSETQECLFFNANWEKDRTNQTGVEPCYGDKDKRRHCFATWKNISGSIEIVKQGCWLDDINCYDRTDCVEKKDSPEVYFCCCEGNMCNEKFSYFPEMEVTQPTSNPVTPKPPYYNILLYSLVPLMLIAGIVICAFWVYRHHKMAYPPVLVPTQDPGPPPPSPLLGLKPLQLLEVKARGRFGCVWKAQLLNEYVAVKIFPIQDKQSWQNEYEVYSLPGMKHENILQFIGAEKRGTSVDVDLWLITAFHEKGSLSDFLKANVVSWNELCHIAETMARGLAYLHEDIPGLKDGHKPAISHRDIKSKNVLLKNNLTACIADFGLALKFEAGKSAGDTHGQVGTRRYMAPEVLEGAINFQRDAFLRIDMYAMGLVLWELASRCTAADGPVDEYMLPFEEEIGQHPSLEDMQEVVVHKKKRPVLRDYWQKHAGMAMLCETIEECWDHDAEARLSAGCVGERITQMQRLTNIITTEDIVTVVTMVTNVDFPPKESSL
Chain of UniProt P51817 (whole entry, looked up): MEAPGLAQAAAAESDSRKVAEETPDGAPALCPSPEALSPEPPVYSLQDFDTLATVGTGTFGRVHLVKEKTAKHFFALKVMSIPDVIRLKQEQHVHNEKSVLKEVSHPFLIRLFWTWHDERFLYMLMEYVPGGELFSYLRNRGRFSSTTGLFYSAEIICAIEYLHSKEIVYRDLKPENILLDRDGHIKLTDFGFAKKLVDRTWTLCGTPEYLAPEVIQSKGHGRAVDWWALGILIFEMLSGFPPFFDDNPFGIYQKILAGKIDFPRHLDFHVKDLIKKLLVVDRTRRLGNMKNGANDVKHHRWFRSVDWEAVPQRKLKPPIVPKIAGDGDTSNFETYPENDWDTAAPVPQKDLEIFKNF
Chain of UniProt P11802 (whole entry, looked up): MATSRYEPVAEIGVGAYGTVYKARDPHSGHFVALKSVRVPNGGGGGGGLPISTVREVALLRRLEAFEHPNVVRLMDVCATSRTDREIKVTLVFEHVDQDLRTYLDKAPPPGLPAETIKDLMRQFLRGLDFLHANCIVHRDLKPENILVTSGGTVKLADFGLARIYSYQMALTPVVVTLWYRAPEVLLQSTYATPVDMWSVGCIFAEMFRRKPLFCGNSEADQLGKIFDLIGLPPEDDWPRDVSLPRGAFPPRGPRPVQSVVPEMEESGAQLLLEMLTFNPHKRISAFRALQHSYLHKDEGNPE
Chain of UniProt O95382 (whole entry, looked up): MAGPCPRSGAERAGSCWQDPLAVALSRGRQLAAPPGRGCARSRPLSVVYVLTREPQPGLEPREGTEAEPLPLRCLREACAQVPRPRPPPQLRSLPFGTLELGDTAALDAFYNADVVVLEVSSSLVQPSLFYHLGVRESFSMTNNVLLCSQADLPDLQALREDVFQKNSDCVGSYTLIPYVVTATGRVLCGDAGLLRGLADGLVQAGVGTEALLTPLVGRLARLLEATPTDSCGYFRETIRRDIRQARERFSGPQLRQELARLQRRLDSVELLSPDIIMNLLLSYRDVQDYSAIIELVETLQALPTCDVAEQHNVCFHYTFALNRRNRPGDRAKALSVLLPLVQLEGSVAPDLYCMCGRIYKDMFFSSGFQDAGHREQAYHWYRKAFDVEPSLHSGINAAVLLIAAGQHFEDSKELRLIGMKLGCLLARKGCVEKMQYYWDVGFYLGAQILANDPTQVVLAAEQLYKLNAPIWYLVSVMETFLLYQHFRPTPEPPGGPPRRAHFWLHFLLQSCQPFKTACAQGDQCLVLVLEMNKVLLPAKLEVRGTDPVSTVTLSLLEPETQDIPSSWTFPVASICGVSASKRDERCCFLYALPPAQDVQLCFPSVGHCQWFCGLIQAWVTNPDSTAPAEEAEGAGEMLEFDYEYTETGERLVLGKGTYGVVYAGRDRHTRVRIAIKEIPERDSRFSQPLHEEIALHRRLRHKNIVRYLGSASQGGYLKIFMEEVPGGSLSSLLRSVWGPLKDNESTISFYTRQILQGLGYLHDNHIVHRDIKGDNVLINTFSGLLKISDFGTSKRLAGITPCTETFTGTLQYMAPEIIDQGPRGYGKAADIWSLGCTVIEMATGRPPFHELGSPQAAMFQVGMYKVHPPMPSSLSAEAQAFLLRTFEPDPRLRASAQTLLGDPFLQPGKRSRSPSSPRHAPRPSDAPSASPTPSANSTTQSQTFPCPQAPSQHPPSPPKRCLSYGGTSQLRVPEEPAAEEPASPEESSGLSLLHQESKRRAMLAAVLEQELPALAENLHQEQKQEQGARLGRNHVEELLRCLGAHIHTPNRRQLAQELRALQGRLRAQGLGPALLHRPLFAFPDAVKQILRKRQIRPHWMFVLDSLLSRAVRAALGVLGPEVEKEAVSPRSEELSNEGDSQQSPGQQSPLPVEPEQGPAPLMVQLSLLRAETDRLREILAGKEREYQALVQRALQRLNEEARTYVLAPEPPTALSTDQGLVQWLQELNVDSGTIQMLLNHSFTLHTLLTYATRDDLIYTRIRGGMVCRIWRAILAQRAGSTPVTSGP
Chain of UniProt Q8IVH8 (whole entry, looked up): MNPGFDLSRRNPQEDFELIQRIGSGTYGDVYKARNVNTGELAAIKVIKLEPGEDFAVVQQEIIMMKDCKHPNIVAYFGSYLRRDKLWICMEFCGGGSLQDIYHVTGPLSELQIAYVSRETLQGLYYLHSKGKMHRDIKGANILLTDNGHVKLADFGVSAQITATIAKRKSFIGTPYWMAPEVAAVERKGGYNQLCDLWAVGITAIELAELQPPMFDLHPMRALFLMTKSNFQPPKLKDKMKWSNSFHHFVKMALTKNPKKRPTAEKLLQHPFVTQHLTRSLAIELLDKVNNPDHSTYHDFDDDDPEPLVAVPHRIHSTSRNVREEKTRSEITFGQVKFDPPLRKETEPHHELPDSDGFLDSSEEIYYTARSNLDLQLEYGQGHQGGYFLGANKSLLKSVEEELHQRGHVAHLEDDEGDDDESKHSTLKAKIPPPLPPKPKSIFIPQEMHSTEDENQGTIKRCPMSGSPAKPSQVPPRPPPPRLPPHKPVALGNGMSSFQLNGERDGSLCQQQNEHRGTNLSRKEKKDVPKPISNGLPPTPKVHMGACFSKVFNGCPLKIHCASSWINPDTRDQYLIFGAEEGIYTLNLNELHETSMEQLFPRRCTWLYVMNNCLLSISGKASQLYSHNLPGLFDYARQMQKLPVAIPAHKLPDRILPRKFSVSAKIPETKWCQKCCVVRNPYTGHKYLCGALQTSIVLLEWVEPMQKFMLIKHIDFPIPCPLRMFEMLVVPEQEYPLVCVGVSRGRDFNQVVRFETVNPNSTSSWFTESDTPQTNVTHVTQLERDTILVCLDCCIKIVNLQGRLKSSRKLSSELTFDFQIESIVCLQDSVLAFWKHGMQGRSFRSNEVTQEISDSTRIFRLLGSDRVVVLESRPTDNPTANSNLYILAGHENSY
Chain of UniProt Q9UQM7 (whole entry, looked up): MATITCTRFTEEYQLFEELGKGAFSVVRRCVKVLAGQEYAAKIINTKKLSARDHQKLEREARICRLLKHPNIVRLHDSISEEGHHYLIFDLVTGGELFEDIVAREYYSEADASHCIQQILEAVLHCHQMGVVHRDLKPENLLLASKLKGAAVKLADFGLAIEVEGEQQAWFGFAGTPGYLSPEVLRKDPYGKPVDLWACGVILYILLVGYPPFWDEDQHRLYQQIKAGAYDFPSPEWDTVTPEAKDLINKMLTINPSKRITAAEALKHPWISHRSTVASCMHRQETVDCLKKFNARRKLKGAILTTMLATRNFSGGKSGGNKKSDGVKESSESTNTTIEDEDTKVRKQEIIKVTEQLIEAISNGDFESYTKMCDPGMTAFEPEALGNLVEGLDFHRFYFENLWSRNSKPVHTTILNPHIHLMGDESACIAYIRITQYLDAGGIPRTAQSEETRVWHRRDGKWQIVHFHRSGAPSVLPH

Sample 1
Target: Calcium/calmodulin-dependent protein kinase type 1D (CAMK1D, Homo sapiens, UniProt Q8IU85)
Chain of UniProt Q8IU85 (whole entry, looked up): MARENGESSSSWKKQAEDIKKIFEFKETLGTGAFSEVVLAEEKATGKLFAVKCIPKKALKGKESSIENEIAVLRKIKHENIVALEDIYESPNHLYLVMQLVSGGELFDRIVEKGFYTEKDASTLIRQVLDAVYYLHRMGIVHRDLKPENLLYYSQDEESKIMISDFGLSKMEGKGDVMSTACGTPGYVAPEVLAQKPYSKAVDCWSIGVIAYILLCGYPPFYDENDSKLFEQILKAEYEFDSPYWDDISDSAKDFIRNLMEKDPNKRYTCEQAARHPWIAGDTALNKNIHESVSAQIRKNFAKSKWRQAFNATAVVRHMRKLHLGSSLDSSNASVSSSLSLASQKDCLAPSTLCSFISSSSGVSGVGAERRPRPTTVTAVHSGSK
Read-out: enzyme activity
Action: inhibitor
Concentration: 0.5 µM
Baseline: control
Measurement: remaining activity
CCCNC(=O)Nc1ccc(Oc2ncnc3cc(OC)c(OC)cc23)cc1Cl: 96.8%
O=C1Cc2c([nH]c3ccc(Br)cc23)-c2ccccc2N1: 112%
Oc1cccc(-c2nc(N3CCOCC3)c3oc4ncccc4c3n2)c1: 121%
Cc1ccc(S(=O)(=O)/C=C/C#N)cc1: 108%
N#CC(c1ccnc(NCCc2cccnc2)n1)c1nc2ccccc2s1 (stereo not drawn): 108%
CN1CCN(c2ccc3nc(-c4c(N)c5c(F)cccc5[nH]c4=O)[nH]c3c2)CC1: 103%
O=c1cc(N2CCOCC2)oc2c(-c3ccccc3)cccc12: 47.9%
O=C1Nc2ccccc2/C1=C\c1c(Cl)[nH]c2ccccc12: 102%
c1ccc(-c2n[nH]c3c2oc2ccccc23)cc1: 92.9%
O=C1NC(=O)c2c1c1c3ccccc3[nH]c1n1cncc21: 91.9%
NC(=O)c1cccc(-c2cc(Nc3ccc(OC(F)(F)F)cc3)ncn2)c1: 105%
N#Cc1cnc2cnc(NCc3cccnc3)cc2c1Nc1ccc(F)c(Cl)c1: 97.8%
COc1ccc2c(c1)c(C1=C(c3c[nH]c4ccccc34)C(=O)NC1=O)cn2CCCN(C)C: 73.3%
COc1cc2c(N3CCN(C(=O)Nc4ccc(OC(C)C)cc4)CC3)ncnc2cc1OCCCN1CCCCC1: 110%
COc1cc2c(Nc3ccc(Br)cc3F)ncnc2cc1OCC1CCN(C)CC1: 90.6%

Sample 2
SMILES: O=C(O)[C@@H]1[C@@H](Cn2nnc3ccccc3c2=O)CC[C@H]1C(=O)c1ccc(OCCC2CCOCC2)cc1
Read-out: cell-free assay
Method: competition with immobilised ligand
Concentration: 1 µM
Measurement: remaining binding
DYRK1B (Homo sapiens, UniProt Q9Y463): 86%
CAMK1D (Homo sapiens, UniProt Q8IU85): 91%
KIT (Homo sapiens, UniProt P10721): 100%
CDK4 (Homo sapiens, UniProt P11802): 86%
CAMK2A (Homo sapiens, UniProt Q9UQM7): 100%
MAP3K6 (Homo sapiens, UniProt O95382): 79%
Tyrosine-protein kinase ABL1, phosphorylated (ABL1, Homo sapiens, UniProt P00519, M351T): 95%
ACVR2A (Homo sapiens, UniProt P27037): 100%
PRKX (Homo sapiens, UniProt P51817): 100%
MAP4K3 (Homo sapiens, UniProt Q8IVH8): 100%
FLT3 (Homo sapiens, UniProt P36888, N841I): 98%

Sample 3
Target: CREB3L4, bZIP domain (human)
Method: DHFR protein complementation
Sample: yeast
Setting: single substitutions, most at no-binding floor
Baseline: wild-type JUN-FOS pair
Direction: higher = stronger binding
Measurement: binding fitness
Parent: JUN, bZIP domain (human); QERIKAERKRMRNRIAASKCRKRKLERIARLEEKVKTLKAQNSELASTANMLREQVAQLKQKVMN; partner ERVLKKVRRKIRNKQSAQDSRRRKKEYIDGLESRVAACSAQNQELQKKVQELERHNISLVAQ
L31I: -1.52 natural log
L31R: -1.49 natural log
M51W: -1.5 natural log
A46R: -1.43 natural log
E33W: -1.5 natural log
K36F: -1.54 natural log
A29R: -1.49 natural log
T48Q: -1.22 natural log

Sample 4
Target: PABPC1L2, full length, GST fusion (mouse, UniProt A0ABA7IW68)
Method: RNAcompete
Molecule type: RNA
Sample: in vitro
Concentration: 20 nM
Setting: 7-mer, probes averaged, single round
Baseline: mean of 7-mers
Direction: higher = stronger binding
Measurement: 7-mer Z-score
Construct (chain): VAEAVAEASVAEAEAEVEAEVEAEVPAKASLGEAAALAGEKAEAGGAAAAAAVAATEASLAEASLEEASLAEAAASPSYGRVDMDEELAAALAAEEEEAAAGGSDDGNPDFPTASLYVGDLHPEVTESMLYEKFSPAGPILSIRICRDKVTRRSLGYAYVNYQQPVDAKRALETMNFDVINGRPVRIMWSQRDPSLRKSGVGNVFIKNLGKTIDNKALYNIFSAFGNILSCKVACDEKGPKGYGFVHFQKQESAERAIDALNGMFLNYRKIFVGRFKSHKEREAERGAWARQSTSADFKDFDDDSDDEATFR
AAAUGCG: 1.32
CGCCGCC: -0.42
CCCCAUU: -0.432
GAACCCG: -0.173
ACCGUCU: -0.237
UCUAGCG: -0.255
AUAACAU: 0.0152
AUGCAGG: 0.298

Repeated from above (sample 1):
c1ccc(-c2n[nH]c3c2oc2ccccc23)cc1: 92.9%
O=C1NC(=O)c2c1c1c3ccccc3[nH]c1n1cncc21: 91.9%
NC(=O)c1cccc(-c2cc(Nc3ccc(OC(F)(F)F)cc3)ncn2)c1: 105%
N#Cc1cnc2cnc(NCc3cccnc3)cc2c1Nc1ccc(F)c(Cl)c1: 97.8%
COc1ccc2c(c1)c(C1=C(c3c[nH]c4ccccc34)C(=O)NC1=O)cn2CCCN(C)C: 73.3%
COc1cc2c(N3CCN(C(=O)Nc4ccc(OC(C)C)cc4)CC3)ncnc2cc1OCCCN1CCCCC1: 110%
